{"data": "Measurements from different studies", "Metallo-beta-lactamase type 2": "Metallo-beta-lactamase type 2 (Serratia marcescens, UniProt P52699)", "note": "Each line is one published result; not all experiments were run side by side. Numbers after ± are the reported error.", "UniProt P52699, sequence (whole entry, looked up)": "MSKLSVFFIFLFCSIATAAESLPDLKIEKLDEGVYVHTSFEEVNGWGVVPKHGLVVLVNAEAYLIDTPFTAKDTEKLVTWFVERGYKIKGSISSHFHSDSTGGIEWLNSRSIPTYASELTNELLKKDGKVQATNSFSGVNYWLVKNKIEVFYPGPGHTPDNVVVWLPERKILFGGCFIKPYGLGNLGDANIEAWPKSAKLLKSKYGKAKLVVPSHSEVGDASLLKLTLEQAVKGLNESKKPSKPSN", "UniProt P53350, sequence (whole entry, looked up)": "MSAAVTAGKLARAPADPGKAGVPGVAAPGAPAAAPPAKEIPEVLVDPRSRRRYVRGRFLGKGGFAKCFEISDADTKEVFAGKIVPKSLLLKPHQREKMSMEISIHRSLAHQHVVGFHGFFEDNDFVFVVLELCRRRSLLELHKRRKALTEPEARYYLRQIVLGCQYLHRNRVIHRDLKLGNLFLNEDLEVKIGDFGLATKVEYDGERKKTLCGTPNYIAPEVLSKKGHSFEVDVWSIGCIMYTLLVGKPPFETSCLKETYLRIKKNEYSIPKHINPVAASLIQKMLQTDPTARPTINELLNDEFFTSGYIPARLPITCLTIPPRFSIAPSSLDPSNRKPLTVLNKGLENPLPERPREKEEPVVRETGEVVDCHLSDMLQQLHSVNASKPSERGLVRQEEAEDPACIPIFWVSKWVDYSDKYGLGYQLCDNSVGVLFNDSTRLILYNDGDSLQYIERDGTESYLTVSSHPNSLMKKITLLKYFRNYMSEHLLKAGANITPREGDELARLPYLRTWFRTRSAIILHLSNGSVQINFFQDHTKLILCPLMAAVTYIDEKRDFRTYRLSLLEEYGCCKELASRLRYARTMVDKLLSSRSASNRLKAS", "UniProt P50391, sequence (whole entry, looked up)": "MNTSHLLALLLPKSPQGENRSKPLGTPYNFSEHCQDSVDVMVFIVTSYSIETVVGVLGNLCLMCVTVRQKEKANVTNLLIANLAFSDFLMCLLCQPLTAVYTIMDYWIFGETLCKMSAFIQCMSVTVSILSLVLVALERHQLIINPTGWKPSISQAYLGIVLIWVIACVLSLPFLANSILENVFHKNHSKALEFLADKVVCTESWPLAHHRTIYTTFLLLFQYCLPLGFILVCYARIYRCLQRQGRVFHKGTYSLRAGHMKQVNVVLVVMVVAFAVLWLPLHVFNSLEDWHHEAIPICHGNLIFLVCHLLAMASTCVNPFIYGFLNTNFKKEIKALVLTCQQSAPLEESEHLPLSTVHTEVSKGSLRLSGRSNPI", "UniProt P05186, sequence (whole entry, looked up)": "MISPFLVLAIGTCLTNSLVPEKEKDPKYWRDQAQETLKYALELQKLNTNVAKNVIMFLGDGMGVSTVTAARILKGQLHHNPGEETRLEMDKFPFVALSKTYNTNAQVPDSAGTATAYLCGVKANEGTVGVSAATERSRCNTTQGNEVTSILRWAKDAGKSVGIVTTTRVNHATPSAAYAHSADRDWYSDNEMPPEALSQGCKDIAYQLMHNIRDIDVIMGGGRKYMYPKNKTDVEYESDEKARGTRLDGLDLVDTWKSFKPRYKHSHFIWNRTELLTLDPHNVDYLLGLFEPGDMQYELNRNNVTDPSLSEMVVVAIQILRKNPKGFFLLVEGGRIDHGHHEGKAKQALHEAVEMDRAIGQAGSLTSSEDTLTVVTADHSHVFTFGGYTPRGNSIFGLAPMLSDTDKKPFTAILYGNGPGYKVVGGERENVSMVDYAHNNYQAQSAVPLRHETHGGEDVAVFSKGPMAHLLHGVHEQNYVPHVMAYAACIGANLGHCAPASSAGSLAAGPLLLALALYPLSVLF", "UniProt Q86U44, sequence (whole entry, looked up)": "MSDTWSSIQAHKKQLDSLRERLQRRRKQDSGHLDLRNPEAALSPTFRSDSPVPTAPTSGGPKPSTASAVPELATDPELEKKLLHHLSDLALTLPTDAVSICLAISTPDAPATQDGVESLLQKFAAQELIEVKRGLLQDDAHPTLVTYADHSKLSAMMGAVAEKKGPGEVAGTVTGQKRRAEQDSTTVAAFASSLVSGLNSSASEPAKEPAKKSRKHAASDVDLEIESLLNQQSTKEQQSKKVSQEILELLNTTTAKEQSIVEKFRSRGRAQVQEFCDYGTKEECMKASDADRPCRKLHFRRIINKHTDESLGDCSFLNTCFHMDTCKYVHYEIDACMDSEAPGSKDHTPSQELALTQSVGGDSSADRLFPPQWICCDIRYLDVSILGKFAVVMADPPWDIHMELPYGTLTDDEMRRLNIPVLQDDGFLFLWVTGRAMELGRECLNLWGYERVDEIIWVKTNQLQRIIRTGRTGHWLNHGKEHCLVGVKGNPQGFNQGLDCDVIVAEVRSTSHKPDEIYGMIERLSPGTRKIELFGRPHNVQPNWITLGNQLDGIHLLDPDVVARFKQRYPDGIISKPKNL", "UniProt P27487, sequence (whole entry, looked up)": "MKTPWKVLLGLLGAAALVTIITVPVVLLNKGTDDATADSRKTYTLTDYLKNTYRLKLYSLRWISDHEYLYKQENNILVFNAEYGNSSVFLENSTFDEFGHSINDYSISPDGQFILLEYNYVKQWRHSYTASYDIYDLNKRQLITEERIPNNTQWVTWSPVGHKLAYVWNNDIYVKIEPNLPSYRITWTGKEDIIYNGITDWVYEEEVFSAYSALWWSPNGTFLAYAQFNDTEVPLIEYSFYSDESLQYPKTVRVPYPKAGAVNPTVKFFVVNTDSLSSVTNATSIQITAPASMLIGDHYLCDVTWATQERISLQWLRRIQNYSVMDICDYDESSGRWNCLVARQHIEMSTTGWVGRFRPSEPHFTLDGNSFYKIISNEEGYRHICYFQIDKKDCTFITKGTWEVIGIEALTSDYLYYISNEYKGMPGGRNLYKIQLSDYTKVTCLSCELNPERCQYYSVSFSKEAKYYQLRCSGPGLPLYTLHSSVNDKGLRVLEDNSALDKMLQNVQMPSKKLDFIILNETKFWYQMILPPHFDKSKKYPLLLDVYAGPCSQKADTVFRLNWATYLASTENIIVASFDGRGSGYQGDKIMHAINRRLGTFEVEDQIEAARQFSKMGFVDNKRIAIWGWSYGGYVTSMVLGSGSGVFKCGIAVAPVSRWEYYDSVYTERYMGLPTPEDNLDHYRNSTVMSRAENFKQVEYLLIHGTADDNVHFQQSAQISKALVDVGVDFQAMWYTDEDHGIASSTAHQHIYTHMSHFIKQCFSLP", "UniProt P30101, sequence (whole entry, looked up)": "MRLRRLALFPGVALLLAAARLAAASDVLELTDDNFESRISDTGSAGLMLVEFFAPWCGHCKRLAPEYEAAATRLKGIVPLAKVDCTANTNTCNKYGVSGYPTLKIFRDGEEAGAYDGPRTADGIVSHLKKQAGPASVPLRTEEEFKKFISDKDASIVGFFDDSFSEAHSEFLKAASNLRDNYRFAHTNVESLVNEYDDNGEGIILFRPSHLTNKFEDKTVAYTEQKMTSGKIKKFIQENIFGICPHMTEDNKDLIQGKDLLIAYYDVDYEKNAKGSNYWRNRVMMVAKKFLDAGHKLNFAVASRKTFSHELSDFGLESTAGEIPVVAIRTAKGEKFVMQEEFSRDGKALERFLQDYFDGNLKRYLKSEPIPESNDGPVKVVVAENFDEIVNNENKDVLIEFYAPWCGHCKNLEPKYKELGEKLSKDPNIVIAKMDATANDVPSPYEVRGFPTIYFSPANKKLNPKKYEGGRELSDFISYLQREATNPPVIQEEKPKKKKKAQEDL", "UniProt Q9BWU1, sequence (whole entry, looked up)": "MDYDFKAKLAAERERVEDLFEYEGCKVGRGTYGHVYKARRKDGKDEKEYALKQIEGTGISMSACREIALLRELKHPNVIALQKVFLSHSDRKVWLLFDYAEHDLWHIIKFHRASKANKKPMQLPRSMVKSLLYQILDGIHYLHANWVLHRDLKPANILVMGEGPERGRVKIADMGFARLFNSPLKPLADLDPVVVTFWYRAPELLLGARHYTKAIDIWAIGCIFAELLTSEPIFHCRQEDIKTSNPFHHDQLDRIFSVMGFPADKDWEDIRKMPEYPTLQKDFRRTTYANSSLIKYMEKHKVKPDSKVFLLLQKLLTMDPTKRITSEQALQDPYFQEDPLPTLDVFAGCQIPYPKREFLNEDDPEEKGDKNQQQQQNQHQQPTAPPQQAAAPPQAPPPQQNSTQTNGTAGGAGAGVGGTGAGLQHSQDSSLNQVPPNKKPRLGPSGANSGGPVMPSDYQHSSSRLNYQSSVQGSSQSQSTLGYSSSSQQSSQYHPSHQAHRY", "UniProt Q08499, sequence (whole entry, looked up)": "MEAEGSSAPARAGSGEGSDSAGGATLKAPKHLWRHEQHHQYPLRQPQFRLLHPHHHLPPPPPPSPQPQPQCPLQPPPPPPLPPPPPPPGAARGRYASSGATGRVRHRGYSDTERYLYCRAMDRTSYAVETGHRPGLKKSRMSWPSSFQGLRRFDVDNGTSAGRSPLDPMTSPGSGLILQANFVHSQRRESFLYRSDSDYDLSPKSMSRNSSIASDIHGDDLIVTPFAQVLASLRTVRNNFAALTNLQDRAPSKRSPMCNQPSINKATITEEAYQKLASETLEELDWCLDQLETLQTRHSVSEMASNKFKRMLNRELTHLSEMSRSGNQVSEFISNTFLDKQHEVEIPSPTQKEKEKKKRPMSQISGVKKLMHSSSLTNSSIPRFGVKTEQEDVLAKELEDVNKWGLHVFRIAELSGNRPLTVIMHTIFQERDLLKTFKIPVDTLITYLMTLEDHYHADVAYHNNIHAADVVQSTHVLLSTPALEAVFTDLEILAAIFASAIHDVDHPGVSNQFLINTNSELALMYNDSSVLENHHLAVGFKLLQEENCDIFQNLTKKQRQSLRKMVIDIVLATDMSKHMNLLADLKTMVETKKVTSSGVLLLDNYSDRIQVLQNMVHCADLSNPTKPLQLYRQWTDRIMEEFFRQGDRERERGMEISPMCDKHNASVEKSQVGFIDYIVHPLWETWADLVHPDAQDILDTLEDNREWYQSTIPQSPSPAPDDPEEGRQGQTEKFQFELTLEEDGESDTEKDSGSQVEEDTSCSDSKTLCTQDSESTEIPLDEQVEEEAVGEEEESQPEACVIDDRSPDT"}
{"Compound": "CCC(=O)C(NC(=O)c1ccccc1-c1ccc(C(F)(F)F)cc1)c1cccc(C(F)(F)F)c1 (centres unmarked)", "target": "NKG2-D type II integral membrane protein, with ULBP6 (KLRK1, Homo sapiens, UniProt P26718)", "test": "ligand binding, inhibitor, TR-FRET", "test system": "HEK293 expressing NKG2D and DAP10", "conditions": "with: ULBP6-AF647", "IC50 [µM]": "> 20"}
{"Compound": "Cn1nnc(-c2cccc(NC(=O)CCS)c2)n1", "target": "Metallo-beta-lactamase type 2", "test": "inhibitor", "conditions": "10 min preincubation, with: FC5 substrate", "IC50 [µM]": 1.18}
{"Compound": "C[N+](C)(C)CCSS(C)(=O)=O", "target": "arsenite methyltransferase (Chlamydomonas reinhardtii, UniProt K0BVM7)", "IC50 [µM]": 220}
{"Compound": "NC(=O)c1cccc(CCN(CC[C@H](N)C(=O)O)C[C@H]2O[C@@H](n3cnc4c(N)ncnc43)[C@H](O)[C@@H]2O)c1", "target": "N6-adenosine-methyltransferase catalytic subunit, with METTL14 (METTL3, Homo sapiens, UniProt Q86U44)", "test": "enzyme activity, inhibitor, radiometric", "conditions": "METTL3-METTL14 complex", "IC50 [µM]": 10}
{"Compound": "CN(CB(O)O)C(=S)[C@@H](N)CCC(=O)O", "target": "DPP4 (Homo sapiens, UniProt P27487)", "test": "enzyme activity, inhibitor", "conditions": "with: FP-biotin 1 µM", "IC50 [µM]": 0.0017}
{"Compound": "COc1c(/C=C/C(=O)c2ccc(O)cc2)ccc(O)c1O", "target": "PDE4D (Homo sapiens, UniProt Q08499)", "test": "enzyme activity, inhibitor, radiometric", "IC50 [µM]": 5.73}
{"Compound": "CC(=O)N[C@@H](CCCNC(=N)N)C(=O)N[C@@H](Cc1ccc(O)cc1)C(=O)N[C@@H](CCCNC(=N)N)C(=O)N[C@@H](CC(C)C)C(=O)N[C@@H](CCCNC(=N)NC(=O)NCCCCN)C(=O)N[C@@H](Cc1ccc(O)cc1)C(N)=O", "target": "NPY4R (Homo sapiens, UniProt P50391)", "test": "β-arrestin 1 recruitment, antagonist", "test system": "HEK293T", "conditions": "with: 3 nM human pancreatic polypeptide", "IC50 [µM]": "6.64 ± 0.78"}
{"Compound": "CC(C)C[C@H](NC(=O)[C@H](CCCNC(=N)N)NC(=O)[C@H](CCC(=O)O)NC(=O)[C@H](CCCCN)NC(=O)[C@H](CCCNC(=N)N)NC(=O)[C@H](CCCCN)NC(=O)[C@]1(C)CCCC=CCCC[C@](C)(NC(=O)[C@H](CC(C)C)NC(=O)[C@H](CO)NC(=O)[C@]2(C)CCCC=CCCC[C@](C)(NC(=O)[C@@H]3CCCN3C(=O)[C@@H](NC(=O)[C@H](CO)NC(=O)c3ccc4c(c3)C(=O)OC43c4ccc(N(C)C)cc4Oc4cc(N(C)C)ccc43)C(C)C)C(=O)N[C@@H](C)C(=O)N[C@@H](CCCNC(=N)N)C(=O)N[C@@H](CCCCN)C(=O)N2)C(=O)N[C@@H](CCCNC(=N)N)C(=O)N[C@@H](Cc2ccccc2)C(=O)N[C@@H](CC(C)C)C(=O)N1)C(=O)O", "target": "Transcription factor MYC3 (MYC3, Arabidopsis thaliana, UniProt Q9FIP9)", "test": "JAZ9 peptide binding, inhibitor, AlphaScreen", "conditions": "pH 8.0, 25 °C, with: 50 nM biotin-JAZ9 peptide", "IC50 [µM]": "2.2 ± 0.5"}
{"Compound": "CC(C)[C@H](NC(=O)[C@@H]1CNC(=O)NCCCC[C@@H](NC(=O)[C@@H](N)Cc2ccc(O)cc2)C(=O)NCC(=O)N[C@@H](Cc2ccccc2)C(=O)N1)C(=O)N[C@H](C(=O)NCC(=O)NCCNC(N)=O)C(C)C", "target": "Oprd1 (Mus musculus, UniProt P32300)", "test": "contraction inhibition, agonist", "test system": "mouse, isolated vas deferens", "IC50 [µM]": "0.00185 ± 0.0001"}
{"Compound": "CCN(Cc1ccccc1)C(=O)CCc1nc(CN2CCN(C(=O)Cc3ccc(OC)c(OC)c3)CC2)no1", "target": "SCN9A (Homo sapiens, UniProt Q15858)", "test": "ion current, inhibitor, patch clamp", "IC50 [µM]": 0.52}
{"Compound": "CNC(=O)c1ccc(-c2cnc3cnc(C(=O)N(C)c4ccc(Cl)cc4)cn23)cc1", "target": "Phosphatidylinositol 4-kinase (Cryptosporidium parvum, UniProt Q5CVD3)", "test": "enzyme activity", "conditions": "with: ATP 3 µM", "IC50 [µM]": "0.017 ± 0.012"}
{"Compound": "CN(C)[C@H]1C[C@@]23CC[C@@]4(O2)C(=CC[C@]2(C)[C@@H](c5ccc6ccncc6c5)CC[C@H]24)C=C3[C@@H](O)[C@@H]1O", "target": "CDK19 (Homo sapiens, UniProt Q9BWU1)", "test": "kinase activity, inhibitor", "IC50 [µM]": "~0.1"}
{"Compound": "O=C(COc1ccc2c(c1O)C(=O)c1ccccc1C2=O)c1ccccc1", "target": "Gag-Pol polyprotein, reverse transcriptase RNase H (gag-pol, Human immunodeficiency virus 1, UniProt P03366)", "test": "RNase H activity", "conditions": "wild-type reverse transcriptase", "IC50 [µM]": "39 ± 6"}
{"Compound": "CCCn1nnc(-c2ccccc2NC(=O)[C@H](C)CS)n1", "target": "Metallo-beta-lactamase type 2", "test": "enzyme activity, inhibitor, fluorescence", "conditions": "10 min preincubation, with: FC5", "IC50 [µM]": 0.879}
{"Compound": "CC(=O)[O][Cu+].CN1CCCN2CCN(C)CCCN(CC1)CC2", "target": "CXCR4 (Homo sapiens, UniProt P61073)", "test": "calcium signal, antagonist, fluorescence", "IC50 [µM]": 0.186}
{"Compound": "O=C(NC12CC3CC(CC(C3)C1)C2)c1cc2cc(Cl)ccc2[nH]1", "target": "Cytochrome P450 2C9 (CYP2C9, Homo sapiens, UniProt P11712)", "test": "inhibitor", "IC50 [µM]": 6.3}
{"Compound": "CC[C@H](C)[C@H](NC(=O)[C@H](CC(=O)O)NC(=O)[C@H](CCCNC(=N)N)NC(=O)[C@H](Cc1c[nH]c2ccccc12)NC(=O)[C@@H](NC(=O)[C@H](CO)NC(=O)[C@H](CC(N)=O)NC(=O)[C@H](CC(N)=O)NC(=O)[C@@H](NC(=O)[C@H](CCCNC(=N)N)NC(=O)[C@H](Cc1c[nH]cn1)NC(=O)[C@@H](N)CCCNC(=N)N)[C@@H](C)CC)[C@@H](C)CC)C(=O)N[C@@H](Cc1ccccc1)C(=O)N[C@@H](CC(C)C)C(=O)N[C@@H](CCCCN)C(=O)N[C@@H](CCCNC(=N)N)C(=O)N[C@@H](CCCCN)C(=O)O", "target": "Sensor histidine kinase ComD (Streptococcus gordonii, UniProt O33646)", "IC50 [µM]": "> 1"}
{"Compound": "COc1ccc(F)cc1S(=O)(=O)Nc1cnc2c(c1)C(=O)NCCO2", "target": "ALPL (Homo sapiens, UniProt P05186)", "test": "enzyme activity, inhibitor, absorbance", "conditions": "pH 7.5", "IC50 [µM]": 0.0034}
{"Compound": "O=C(Nc1ccccc1NC(=O)c1cccc(Cl)c1)c1cccc(Cl)c1", "target": "lasR (Pseudomonas aeruginosa, UniProt P25084)", "test": "reporter gene, antagonist", "test system": "Escherichia coli, JLD271 with LasR plasmid", "conditions": "with: OdDHL 2 nM", "IC50 [µM]": 70}
{"Compound": "N#C[C@@]1(c2ccc3c(N)ncnn23)O[C@H](COP(=O)(O)OP(=O)(O)OP(=O)(O)O)[C@@H](O)[C@H]1O", "target": "POLRMT (Homo sapiens, UniProt O00411)", "test": "enzyme activity, inhibitor", "IC50 [µM]": "> 200"}
{"Compound": "COC(=O)C1CN1S(=O)(=O)c1ccc(C(F)(F)F)cc1 (centres unmarked)", "target": "PDIA3 (Homo sapiens, UniProt P30101)", "test": "enzyme activity, inhibitor, absorbance", "conditions": "pH 7.6", "IC50 [µM]": "> 200"}
{"Compound": "COC(=O)C=CCCC(NC(=O)c1ccncc1C(=O)O)C(=O)NC(C(=O)N1CC(=O)CC1C(=O)NC(C(=O)NC(C(N)=O)C1CCCCC1)C1CCCCC1)C(C)(C)C (centres unmarked)", "target": "coagulation factor XIII A chain (Oryctolagus cuniculus, UniProt A0A5F9CS22)", "test": "isopeptidase activity, inhibitor", "conditions": "with: A101 substrate", "IC50 [µM]": "0.02 ± 0.001"}
{"Compound": "CC[C@@H]1C(=O)N(C)c2cnc(Nc3ccc(C(=O)NCCCC[C@H](NC(C)=O)C(=O)N4CCC[C@H]4C(=O)N[C@@H](CC(C)C)C(=O)N[C@@H](Cc4cncn4CCCCCCCCc4ccccc4)C(=O)N[C@@H](CO)C(=O)N[C@H](C(N)=O)[C@@H](C)OP(=O)(O)O)cc3OC)nc2N1C1CCCC1", "target": "PLK1 (Homo sapiens, UniProt P53350)", "test": "enzyme activity, inhibitor", "IC50 [µM]": "0.0036 ± 0.00035"}
